Assay results of several laboratories.
Every numbered part comes from another study and shows a few of its results, in no order. Positions count from the first letter of the parent shown.

Sample 1
Target: CCNE1, cyclin fold, Cln2 fusion (human)
Method: yeast growth competition, sequencing
Sample: yeast
Setting: strong parent motif
Relative to: not given
Direction: higher = stronger binding
Endpoint: normalised enrichment score
Parent: PKN2 docking peptide (human); VSAVRKLDFSDTM
VSAVCKLDFSDTM [R5C]: 1.47
VSAVRKLGFSDTM [D8G]: 1.16
VSAVRKLDDSDTM [F9D]: 0.0312
VSAVRKYDFSDTM [L7Y]: 0.0825
VDAVRKLDFSDTM [S2D]: 3.74
VSAVRKLDCSDTM [F9C]: 0.0732
VSAVRKLDFSRTM [D11R]: 4.13
VSAVRELDFSDTM [K6E]: 2.39
VSAVRQLDFSDTM [K6Q]: 5.09
VSAVRKLDSSDTM [F9S]: 0.0661
VSAVRKLDFLDTM [S10L]: 4.44
VSAVRKLDFSMTM [D11M]: 5.15
VVAVRKLDFSDTM [S2V]: 3.44
VSAVRKFDFSDTM [L7F]: -0.274
VEAVRKLDFSDTM [S2E]: 3.4
VSAVRKLDFSYTM [D11Y]: 5
VSAVGKLDFSDTM [R5G]: -0.0551
VSAVRKLDFSDCM [T12C]: 5.36
VSAVRNLDFSDTM [K6N]: 1.81
VSACRKLDFSDTM [V4C]: 5.54
VSAVRKLDFRDTM [S10R]: 4.8
VSAVRKLDFKDTM [S10K]: 4.5
VSAVRKSDFSDTM [L7S]: 0.073
VSAVRKLDFSDGM [T12G]: 5
VSAVRKLDFSITM [D11I]: 5.28

Sample 2
Target: RNA binding protein fox-1 homolog 2, RRM domain, GST-SBP tag (RBFOX2, Homo sapiens, UniProt O43251-10, residues 100-194)
Method: RNA Bind-n-Seq
Form: RNA
Sample: in vitro
Tested at: 365 nM
Setting: natural RNA segment, single round, ends assumed
Relative to: no-protein control
Direction: higher = stronger binding
Endpoint: RBNS enrichment (R)
Residues (chain): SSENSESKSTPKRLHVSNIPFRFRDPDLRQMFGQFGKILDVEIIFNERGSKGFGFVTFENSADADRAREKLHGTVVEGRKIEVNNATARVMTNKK
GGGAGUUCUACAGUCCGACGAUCUAUGACACAAGGCCAAUGGGGACCGGAGUACCAUGGCUCCUGUCCUUGGAUGGUCUCUUGUCCCUGAAUUUCAUUGUAUCAUGCAUGGAGAGAAAUGUUUGUCUUUCUGUUGGAAUUCUCGGGUGCCAA: 6.93
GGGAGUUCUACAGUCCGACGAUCUAUUUCUUUUGGUAUCUUUCUUCCUGUACAUUGGAGUGAUGGAAAGUCUGGUAUUAAAACCUCUCUUACUUUUAAACUUGAUUUUGCAGACUCUGGCAAUAAGCCUUCCAUGGAAUUCUCGGGUGCCAA: 0.605
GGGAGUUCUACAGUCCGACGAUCAAGAAAAGUAUAUAGAUCUGUAAUUGGACAGCUCUCUCGAAGAGAUCUUACAGACUGUAUCAGUCUAAUUUUUAAAUUUUAAGUUAUUUUGUACAGCUUUGUAAAUUCUUUGGAAUUCUCGGGUGCCAA: 0.45
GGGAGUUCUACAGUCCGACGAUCUGCAGGCCCACCCCAGCCACCACUGAGUCCACUCGGAGUGCCCUGUGUUCCUGGAGAAGGCAUUCCAGGGUUGAAUCUUGUCCCAGCCUCAGCCUGGGACACCUAGGUGGUGGAAUUCUCGGGUGCCAA: 0.278
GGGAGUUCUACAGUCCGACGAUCUGUAGGCCCCUCUGCAACGACUUCCUUUGCACCAAAGACAACAGUCUACAAGUUUCUACUUUCUUGUUUGAUUGAGCAAAGUCUCCUAGUGACAGCAACACCAUGAAUUUUGGAAUUCUCGGGUGCCAA: 0.374
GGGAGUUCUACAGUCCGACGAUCCAGAAGGGGCUCUUCUCUCCACAGAGCUGGGGUGCAGCCCCAACAUGUGAUUUUGAAUGAGUGUAAAUAAUUUUAAAUAACCUGGCCCUUGGAAUAAAGUUGUUUUCUGUUGGAAUUCUCGGGUGCCAA: 0.406
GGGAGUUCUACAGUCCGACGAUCCUCCAUCUGAUCGUCCUUUCAGUUUCCCCUUCACCACUGGAUCUCGAGGAGGAGAUGGCCUAGUGUUACGGCUCGAGACAGGAGGCCAGCCCAGGGGGUUCUGCUUAUGUUGGAAUUCUCGGGUGCCAA: 0.357
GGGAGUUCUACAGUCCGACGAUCAGAACCUUUCCCCUGUACUUUUCUUUGGCCCCAUUGUUUAAAAGGGGAAAAUGGCCUUUUUAAACCCUGUCAAGCCCAUGAUGGAAGACACCACCUCUGCCAUGCCCUGUUGGAAUUCUCGGGUGCCAA: 0.657

Sample 3
Target: Phosphate system positive regulatory protein PHO4, full length, GST-tagged (PHO4, Saccharomyces cerevisiae, UniProt P07270, residues 1-312)
Method: competition protein-binding microarray
Form: double-stranded DNA, one strand shown
Sample: in vitro
Tested at: 2 µM
Setting: whole 60-bp probe, lowest competitor level
With: Cbf1 competitor, 0.05 µM
Direction: higher = stronger binding
Endpoint: fluorescence intensity
Target sequence (chain): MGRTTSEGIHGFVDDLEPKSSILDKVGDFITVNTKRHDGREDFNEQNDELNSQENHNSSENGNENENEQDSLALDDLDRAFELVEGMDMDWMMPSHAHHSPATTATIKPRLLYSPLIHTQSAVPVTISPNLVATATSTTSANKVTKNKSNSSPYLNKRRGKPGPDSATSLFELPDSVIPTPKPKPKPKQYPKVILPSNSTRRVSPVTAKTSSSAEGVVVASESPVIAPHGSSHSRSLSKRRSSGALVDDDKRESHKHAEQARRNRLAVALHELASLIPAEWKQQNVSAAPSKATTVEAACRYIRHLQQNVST
CGCGAACGAATCCATCACGCAGCCTCGCCTTGAGACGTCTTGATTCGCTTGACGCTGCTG: 5720 a.u.
CGTCCTAGTGATTGTCACGTGACTTCCATGAGGAAGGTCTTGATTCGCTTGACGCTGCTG: 11300 a.u.
CTTCTGTAAATTTGGGTTGTGGGTGGACGCGCCCCGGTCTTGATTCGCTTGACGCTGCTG: 4680 a.u.
CTTTCCCGATCTTGACTCGTGGGTGTAGCACATTTGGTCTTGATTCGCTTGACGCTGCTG: 11500 a.u.
GCCACTTTGTAGCGTCACAATGACTGGGTTTCCCAAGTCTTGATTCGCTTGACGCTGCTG: 3040 a.u.
TGCGCAACAACTTGTGCCGTGGGTGTATGTCTAGAAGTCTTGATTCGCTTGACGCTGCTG: 6160 a.u.
AATACTTCTGAGTTCTACGTGGTGAAAAAATATTTTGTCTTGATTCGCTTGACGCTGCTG: 5540 a.u.
TTCATTGGTGCAGAAAGCGTGCTTTCCGGGTCCCAGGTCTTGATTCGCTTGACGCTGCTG: 8050 a.u.
TGGTAATAACTGGAGCATGTGGCTGCGAATGTCCCGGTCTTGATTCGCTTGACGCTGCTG: 10200 a.u.
AAAACTTACTTCCGTCACATGCAAGACGTAGACCCAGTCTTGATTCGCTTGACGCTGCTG: 8600 a.u.
CTTTCCCGATCTTGGAGGGTGGGTGTAGCACATTTGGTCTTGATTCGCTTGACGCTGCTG: 4660 a.u.
TGCGCAACAACTTGTCACTCCACTTTATGTCTAGAAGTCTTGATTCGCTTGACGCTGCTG: 3450 a.u.
GTACATGTCCGCCATCACGTGGTGAAGATGTAGTATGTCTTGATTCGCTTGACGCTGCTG: 19400 a.u.
GGTTTATTTGGATCGCACGTGGCAATAGTGATGAGAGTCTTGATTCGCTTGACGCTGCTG: 17700 a.u.
CGATCAAGCGACCTACACGTGCTTTCAAGGCGCATTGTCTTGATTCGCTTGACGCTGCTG: 17000 a.u.
CATACCCAACCTTGGTAGGTGGGTGAAGATATTTGTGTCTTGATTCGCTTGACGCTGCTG: 3770 a.u.
ATTGAATTGGGATATCACATGGTTATTATGGGTCCTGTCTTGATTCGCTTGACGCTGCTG: 7740 a.u.
ATCCCATTGGCAAATCACCTGTTCCGGCTGCTTGATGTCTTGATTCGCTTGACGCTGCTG: 5040 a.u.
ATCAAGACGGGATTGCACACGCATTAACAACAACTCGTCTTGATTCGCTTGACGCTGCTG: 8950 a.u.

Other studies, line by line
PhoQ, residues 284 288 289 292 302 303 HSYLQF — fold induction (PhoP, residues 12 14 15 18 19 NHFIF (Escherichia coli, UniProt P23836); Sort-seq, refers to: YFP reporter; E. coli; PhoQ-PhoP variant library, with: 10 µM Mg2+; relative to: high Mg2+ state, higher = stronger signaling): 2.34

A few entries again (sample 3):
TGCGCAACAACTTGTGCCGTGGGTGTATGTCTAGAAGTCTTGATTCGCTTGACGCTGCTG: 6160 a.u.
CGCGAACGAATCCATCACGCAGCCTCGCCTTGAGACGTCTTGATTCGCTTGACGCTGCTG: 5720 a.u.
AAAACTTACTTCCGTCACATGCAAGACGTAGACCCAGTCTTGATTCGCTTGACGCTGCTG: 8600 a.u.
GCCACTTTGTAGCGTCACAATGACTGGGTTTCCCAAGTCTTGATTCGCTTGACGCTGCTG: 3040 a.u.
ATCCCATTGGCAAATCACCTGTTCCGGCTGCTTGATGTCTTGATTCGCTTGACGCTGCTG: 5040 a.u.
